Experimental data from different studies.
Numbered parts are unrelated; each lists some results of a single study.

Set 1 — method: protein binding microarray; form: double-stranded DNA, one strand shown; sample: in vitro; concentration: not given; relative to: not given; reading: higher = stronger binding
Target: Histone acetyltransferase KAT6A, both winged helices, GST fusion (KAT6A, Homo sapiens, UniProt Q92794, residues 1-181)
Notes: 8-mer, flanks averaged, mean of 2 arrays, mostly near background
Target sequence (chain): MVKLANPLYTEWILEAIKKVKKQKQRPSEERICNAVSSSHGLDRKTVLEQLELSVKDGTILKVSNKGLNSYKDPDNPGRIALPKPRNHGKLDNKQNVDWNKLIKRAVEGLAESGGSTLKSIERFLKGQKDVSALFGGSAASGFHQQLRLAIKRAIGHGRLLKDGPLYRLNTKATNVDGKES
Oligonucleotide	E-score
CATACTCA	-0.119
CTTCAAGA	-0.1
GGTAGCAC	0.0428
ACGGCATA	0.291

Set 2 — method: aptamer microarray, sandwich; form: DNA with 2'F-ANA; sample: in vitro; concentration: 200 nM; together with: Cy3 exosite-II aptamer, 400 nM; reading: higher = stronger binding
Target: Prothrombin, mature alpha-thrombin (F2, Homo sapiens, UniProt P00734)
Notes: whole 15-mer aptamer, many near background
Oligonucleotide	mean fluorescence intensity [a.u.]
GGTTGGTGTGGTTGG (2'F-ANA at 1 2 3 4 5 6 10 11 12 15)	51
GGTTGGTGTGGTTGG (2'F-ANA at 2 3 4 8 9 12 15)	724
GGTTGGTGTGGTTGG (2'F-ANA at 2 3 4 5 6 7 12 13 14 15)	49.5
GGTTGGTGTGGTTGG (2'F-ANA at 2 7 9 11 14)	141

Set 3 — method: universal PBM; form: double-stranded DNA, one strand shown; sample: in vitro; concentration: 600 nM; reading: higher = stronger binding
Target: Sal-like protein 4, full length isoform A (SALL4, Homo sapiens, UniProt Q9UJQ4, residues 1-1053)
UniProt Q9UJQ4, sequence (whole entry, looked up): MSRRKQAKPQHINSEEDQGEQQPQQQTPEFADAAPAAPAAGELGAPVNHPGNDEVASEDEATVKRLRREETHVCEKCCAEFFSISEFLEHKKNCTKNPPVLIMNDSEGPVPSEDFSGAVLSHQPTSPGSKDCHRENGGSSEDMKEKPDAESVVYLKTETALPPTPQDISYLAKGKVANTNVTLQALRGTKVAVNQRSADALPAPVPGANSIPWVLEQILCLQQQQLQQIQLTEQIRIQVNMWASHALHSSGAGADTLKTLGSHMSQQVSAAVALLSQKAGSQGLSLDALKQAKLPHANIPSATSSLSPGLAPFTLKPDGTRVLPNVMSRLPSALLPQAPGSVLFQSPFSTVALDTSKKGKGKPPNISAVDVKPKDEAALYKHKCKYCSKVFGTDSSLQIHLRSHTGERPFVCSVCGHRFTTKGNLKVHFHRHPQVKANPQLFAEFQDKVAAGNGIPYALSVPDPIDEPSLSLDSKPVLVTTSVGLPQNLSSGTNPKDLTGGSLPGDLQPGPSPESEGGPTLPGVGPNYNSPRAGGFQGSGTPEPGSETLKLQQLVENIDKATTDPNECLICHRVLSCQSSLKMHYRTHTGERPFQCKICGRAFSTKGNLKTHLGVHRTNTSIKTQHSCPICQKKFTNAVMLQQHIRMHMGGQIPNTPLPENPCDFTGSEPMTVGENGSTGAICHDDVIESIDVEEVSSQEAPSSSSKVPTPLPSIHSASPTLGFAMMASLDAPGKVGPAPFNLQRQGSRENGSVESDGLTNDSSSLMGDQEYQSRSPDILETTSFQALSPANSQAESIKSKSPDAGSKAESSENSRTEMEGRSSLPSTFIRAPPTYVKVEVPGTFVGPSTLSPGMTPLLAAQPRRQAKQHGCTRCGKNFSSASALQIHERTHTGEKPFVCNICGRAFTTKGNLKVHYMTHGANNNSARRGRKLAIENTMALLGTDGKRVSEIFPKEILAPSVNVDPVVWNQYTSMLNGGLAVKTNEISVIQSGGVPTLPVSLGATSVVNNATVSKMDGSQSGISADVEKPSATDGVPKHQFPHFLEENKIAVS
Notes: 8-mer, flanks averaged, mean of replicates
Oligonucleotide	E-score
GATTGGGC	-0.0662
ATCACCGG	-0.212
AAATTGCT	0.172
CTGTTGGA	0.0793
CAGATCCG	-0.142

Other studies, line by line
Substance	target	assay	system	conditions	how to read	quantity	value
PhoQ, residues 284 288 289 292 302 303 AAQSYM	PhoP, residues 12 14 15 18 19 GQAIL (Escherichia coli, UniProt P23836)	Sort-seq, refers to: YFP reporter	E. coli	PhoQ-PhoP variant library, together with: 10 µM Mg2+	relative to: high Mg2+ state, higher = stronger signaling	fold induction	10.9

Repeated from above (set 3):
Oligonucleotide	E-score
GATTGGGC	-0.0662
